Results of several laboratories.
Protocols differ between the studies behind these lines. ± marks the error that the study gave.

SMILES | cell line | test | test system | conditions | scale | endpoint | result
CC(=O)OC[C@H]1O[C@@H](Sc2sc(C(=O)c3ccc(C)cc3)c(N)c2-c2nc3ccccc3s2)[C@H](OC(C)=O)[C@@H](OC(C)=O)[C@H]1OC(C)=O | Hs-578T | SRB | – | 10 µM, 48 h | reference: untreated | growth | 82.9%
COC(=O)c1ccccc1-c1c2ccc(=O)cc-2oc2cc(OCCCCC[P+](c3cc(C)cc(C)c3)(c3cc(C)cc(C)c3)c3cc(C)cc(C)c3)ccc12 | HeLa cells | confocal microscopy | mitochondria | 100 nM | reference: MitoTracker Deep Red | fluorescence ratio | 0.757
CC[C@@]12CCc3c(c4ccccc4n3C)CCN(C[C@H](O)[C@H]1O)C2 | BV-2 | NO production | – | 6 µM, 1 h, 24 h stimulation, together with: LPS 800 ng/mL | reference: LPS control | inhibition | 54.1 ± 4.3%
CN1CCN(C(=O)N(CCCCCCC(=O)NO)c2ccc(-c3ccc4cnn(C)c4c3)cc2)CC1 | MM1.S | flow cytometry, propidium iodide | – | 1000 nM, 24 h | – | sub-G1 cells | 26.6 ± 1.8%
CC(=O)Oc1ccccc1C(=O)[O][Pt]([NH2])([NH2])([Cl])([Cl])[O]C(=O)C(Cl)Cl | six human cancer cell lines | MTT | – | – | reference: oxaliplatin over compound | mean IC50 ratio | ~5
COc1cc(CNC(=O)C[C@H](C)CCC=C(C)C)ccc1O | RPMI-8226 leukaemia cells | SRB | – | 10 µM, 48 h | – | growth percent | 84.4%
N=C(N)NCCC[C@H](NC(=O)[C@H](Cc1c[nH]c2ccccc12)NC(=O)[C@H](CCC(N)=O)NC(=O)[C@H](Cc1c[nH]c2ccccc12)NC(=O)[C@H](CCCNC(=N)N)NC(=O)[C@H](Cc1c[nH]c2ccccc12)NC(=O)[C@H](CCC(N)=O)NC(=O)[C@H](Cc1c[nH]c2ccccc12)NC(=O)[C@@H](N)CCCNC(=N)N)C(N)=O | MCF7 | – | – | – | reference: erythrocyte IC50 over MCF7 IC50 | selectivity ratio | > 1.7
O=C(Nc1ccccc1)c1ccc(Nc2nnc(-c3ccc(O)cc3)c3ccccc23)cc1 | FAAH-1 knock-out mouse cortical neurons | – | – | 10 µM, 3 h, together with: [3H]-anandamide | – | anandamide uptake | no effect
O=C1NCC(Cc2ccccc2)N(CC2CCCN2CC(CC2CCCCC2)N2CC(Cc3ccc(O)cc3)N(CCc3ccccc3)C(=O)C2=O)C1=O (centres unmarked) | WM 266-4 | CYTO-ID staining | – | 100 µM, 24 h | – | autophagic cells | 57%
Cc1ccc(C2=Nn3c(N/N=C4/C(=O)Nc5ccc(Br)cc54)nnc3SC2)cc1 | SF-539 | cell growth or viability, SRB | – | 10 µM | – | inhibition | 12%
CCc1nnc(NS(=O)(=O)c2ccc(NC(=S)NC(=O)/C=C/c3ccc(F)cc3)cc2)s1 | SK-N-AS EP2 knock-out | – | – | 10 µM | – | colony density | no effect
COc1cc(CNC(=O)C[C@H](C)CCC=C(C)C)ccc1OCc1cn(-c2ccc(Br)cc2)nn1 | SF-539 CNS cancer cells | SRB | – | 10 µM, 48 h | – | growth percent | 51.2%
C[N+]1(CC(=O)OC2CCCCCCCCCCC2)CCCCC1 | LNCaP expressing AR-V7 | cell viability, CellTiter-Blue | – | 96 h | – | ED50 | 6.3 µM
O=C1C(Cl)=C(NCCN2CCOCC2)C(=O)c2ncccc21 | HEK-293T | H4K20me1 depletion, inhibitor, western blot | – | sustained 3 days | – | effective single dose | 5 µM
O=C1Nc2ccc(F)cc2C1=Cc1c(Cl)[nH]c2c1ccc1ccccc12 | melanoma subpanel of NCI-60 | – | – | 48 h | – | TGI | 11 µM
C1=[N+]2CCCC[N+]3=Cc4ccc5[n]4[Au-]23[n]2c1ccc2-c1nc2ccccc2nc1-5.F[P-](F)(F)(F)(F)F | CNS cancer cell lines | – | – | NCI60 panel mean | – | GI50 | 3 µM
C=C(C)[C@@H]1CC[C@]2(C(=O)OCO/N=[N+](\[O-])N3CCCC3)CC[C@]3(C)[C@H](CC[C@@H]4[C@@]5(C)CC[C@H](OC(C)=O)C(C)(C)[C@@H]5CC[C@]43C)[C@@H]12 | B16-F10 | PI flow cytometry | – | 0.25 µM | – | cells in S phase | 40.9%
COc1cc(CNC(=O)C[C@H](C)CCC=C(C)C)ccc1OCc1cn(-c2cccc(C(F)(F)F)c2)nn1 | SK-MEL-2 melanoma cells | SRB | – | 10 µM, 48 h | – | growth percent | 111%
FC(F)(F)c1ccnc(-c2cc(C(F)(F)F)ccn2)c1.FC(F)(F)c1ccnc(-c2cc(C(F)(F)F)ccn2)c1.[Cl-].[Cl-].[Ru+2].c1csc(-c2ccc(-c3ccc(-c4ccc(-c5nc6c7cccnc7c7ncccc7c6[nH]5)s4)s3)s2)c1 | SK-MEL-28 | cell growth or viability, resazurin | – | dark | – | EC50 | 100 µM

SMILES | cell line | test | test system | conditions | scale | endpoint | result
C=C(CC)C(=O)c1ccc(OCC(=O)NCCNC(=O)COc2ccc(C(=O)C(=C)CC)c(Cl)c2Cl)c(Cl)c1Cl | A549/DDP cisplatin-resistant | cell growth, CCK-8 | – | 1.0 µM, together with: cisplatin | – | sensitisation to cisplatin | ~7 fold
COc1ccc(NC(=O)CCc2nc3cc(Cl)ccc3[nH]c2=O)cc1 | unspecified cells | – | – | concentration not given, unit not given | reference: untreated control | BAX level | 4.3
CCC(=C(c1ccc(Cl)cc1)c1ccc(OCCCN(C)C)cc1)c1ccc(OC)cc1 | SF-539 | cell growth or viability, SRB | – | – | – | GI50 | 4.08 µM
COc1ccc([C@@H]2CC(=O)c3c(O)cc(O[C@@H]4O[C@H](CO[C@@H]5O[C@@H](C)[C@H](O)[C@@H](O)[C@H]5O)[C@@H](O)[C@H](O)[C@H]4O)cc3O2)cc1O | A549 | cell migration, scratch | – | 50 µg/mL, 0 h | – | gap closure | 0%
COc1cc(CNC(=O)C[C@H](C)CCC=C(C)C)ccc1OCc1cn(-c2ccccc2[N+](=O)[O-])nn1 | A498 | SRB | – | 10 µM, 48 h | – | growth percent | 108%
O=Cc1c(O)ccc2ccccc12 | HUVEC | RNA sequencing, item: CCNE2 | – | 75 µM, 24 h | reference: DMSO | log2 fold change | -3.1
CC(=O)N[C@H](C(=O)N[C@H](C(=O)N[C@@H](CCCNC(=N)N)C(=O)N1Cc2ccccc2C[C@H]1C(=O)N[C@@H](Cc1ccccc1)C(N)=O)C1CCCCC1)C(C)C | MBP-specific BC-3 T cells | Bio-Plex multiplex, item: IL-5 | – | 200 µg/mL, 24 h, together with: MBP87-99 antigen | – | cytokine level | < 0.3 pg/mL
COc1cc(CNC(=O)C[C@H](C)CCC=C(C)C)ccc1OCc1cn(-c2ccc(F)cc2)nn1 | SK-MEL-2 melanoma cells | SRB | – | 10 µM, 48 h | – | growth percent | 84.6%
COc1ccc(OC)c(Nc2nc(NCCCO)c3ccccc3n2)c1 | BCR-ABL1+ BRCA1-deficient 32Dcl3 | item: GFP-RAD52 foci | – | 2.5 µM, together with: cisplatin | – | cells without foci | 57.6 ± 0.5%
CC/C=C\C/C=C\C/C=C\C/C=C\C/C=C\C/C=C\CCC(=O)Nc1ccn(C2OC(CO)C(O)C2(F)F)c(=O)n1 (centres unmarked) | Hs-578T | cell growth or viability, SRB | – | – | – | GI50 | 17 µM
COc1cc(CNC(=O)C[C@H](C)CCC=C(C)C)ccc1OCc1cn(-c2cccc([N+](=O)[O-])c2)nn1 | SK-MEL-2 melanoma cells | SRB | – | 10 µM, 48 h | – | growth percent | 95.9%
C#CCCCCNC(=O)c1ccc(N(C(=O)C=C)c2ccc(Br)cc2)cc1 | H460 cell lysate | MS-ABPP | – | 100 µM | reactivity ratio below 2 | number of hyperreactive proteins | 447 proteins
COc1cc(C(=O)c2[nH]c(N)nc2-c2cccs2)cc(OC)c1OC | HeLa cells | propidium iodide staining | – | 75 nM, 24 h | – | dead cells | 42%
N#Cc1cccc(-c2ccc(=O)n(Cc3cccc(-c4ncc(OCC5CCN(CC(=O)N6CCN(c7ccc8c(c7)C(=O)N(C7CCC(=O)NC7=O)C8=O)CC6)CC5)cn4)c3)n2)c1 (centres unmarked) | EBC-1 | degrader, label-free proteomics | – | 10 nM, 48 h | – | c-MET degradation | > 80%
Cc1ccc(C)c2sc(NC(=O)C3CCN(S(=O)(=O)c4ccc(F)cc4)CC3)nc12 | wild-type mouse BMDM | flow cytometry | – | 10 µM, 6 h pretreatment, together with: apoptotic Jurkat cells 45 min | reference: vehicle | efferocytosis | increased
COc1cc(CNC(=O)C[C@H](C)CCC=C(C)C)ccc1OCc1cn(-c2ccccc2)nn1 | SK-MEL-2 melanoma cells | SRB | – | 10 µM, 48 h | – | growth percent | 91.2%
CC(=O)OC[C@H]1O[C@@H](Sc2sc(C(=O)c3ccc(Br)cc3)c(N)c2-c2nc3ccccc3s2)[C@H](OC(C)=O)[C@@H](OC(C)=O)[C@@H]1OC(C)=O | BT-549 | SRB | – | 10 µM, 48 h | reference: untreated | growth | 103%
COc1cc(CNC(=O)C[C@H](C)CCC=C(C)C)ccc1OCc1cn(-c2ccc(Cl)cc2Cl)nn1 | U-251 CNS cancer cells | SRB | – | 10 µM, 48 h | – | growth percent | 54.4%
CN1CCC2(CC1)C/C(=N\NC(=O)Nc1ccccc1)c1ccccc1O2 | MCF7 | annexin V-FITC/PI | – | concentration not given, 24 h, Late apoptosis | – | apoptotic cells | 14.5%
